Results gathered from unrelated publications.
Values joined by “and” are separate records of one study, mostly repeats; a detail may differ.
B1: UGT1A9 (Homo sapiens, UniProt O60656); chain GKLLVVPMDGSHWFTMRSVVEKLILRGHEVVVVMPEVSWQLGRSLNCTVKTYSTSYTLEDLDREFKAFAHAQWKAQVRSIYSLLMGSYNDIFDLFFSNCRSLFKDKKLVEYLKESSFDAVFLDPFDNCGLIVAKYFSLPSVVFARGILCHYLEEGAQCPAPLSYVPRILLGFSDAMTFKERVRNHIMHLEEHLLCHRFFKNALEIASEILQTPVTEYDLYSHTSIWLLRTDFVLDYPKPVMPNMIFIGGINCHQGKPLPMEFEAYINASGEHGIVVFSLGSMVSEIPEKKAMAIADALGKIPQTVLWRYTGTRPSNLANNTILVKWLPQNDLLGHPMTRAFITHAGSHGVYESICNGVPMVMMPLFGDQMDNAKRMETKGAGVTLNVLEMTSEDLENALKAVINDKSYKENIMRLSSLHKDRPVEPLDLAVFWVEFVMRHKGAPHLRPAAHDLTWYQYHSLDVIGFLLAVVLTVAFITFKCCAYGYRKCLGKKGRVKKAHKSKTH
B2: RTT103 1-131 R108N (Saccharomyces cerevisiae, UniProt Q05543); chain MPFSSEQFTTKLNTLEDSQESISSASKWLLLQYRDAPKVAEMWKEYMLRPSVNTRRKLLGLYLMNHVVQQAKGQKIIQFQDSFGKVAAEVLGRINQEFPRDLKKKLSNVVNILKERNIFSKQVVNDIERSL
B3: DIS3 (Saccharomyces cerevisiae, UniProt Q08162); sequence looked up; chain MSVPAIAPRRKRLADGLSVTQKVFVRSRNGGATKIVREHYLRSDIPCLSRSCTKCPQIVVPDAQNELPKFILSDSPLELSAPIGKHYVVLDTNVVLQAIDLLENPNCFFDVIVPQIVLDEVRNKSYPVYTRLRTLCRDSDDHKRFIVFHNEFSEHTFVERLPNETINDRNDRAIRKTCQWYSEHLKPYDINVVLVTNDRLNREAATKEVESNIITKSLVQYIELLPNADDIRDSIPQMDSFDKDLERDTFSDFTFPEYYSTARVMGGLKNGVLYQGNIQISEYNFLEGSVSLPRFSKPVLIVGQKNLNRAFNGDQVIVELLPQSEWKAPSSIVLDSEHFDVNDNPDIEAGDDDDNNESSSNTTVISDKQRRLLAKDAMIAQRSKKIQPTAKVVYIQRRSWRQYVGQLAPSSVDPQSSSTQNVFVILMDKCLPKVRIRTRRAAELLDKRIVISIDSWPTTHKYPLGHFVRDLGTIESAQAETEALLLEHDVEYRPFSKKVLECLPAEGHDWKAPTKLDDPEAVSKDPLLTKRKDLRDKLICSIDPPGCVDIDDALHAKKLPNGNWEVGVHIADVTHFVKPGTALDAEGAARGTSVYLVDKRIDMLPMLLGTDLCSLKPYVDRFAFSVIWELDDSANIVNVNFMKSVIRSREAFSYEQAQLRIDDKTQNDELTMGMRALLKLSVKLKQKRLEAGALNLASPEVKVHMDSETSDPNEVEIKKLLATNSLVEEFMLLANISVARKIYDAFPQTAMLRRHAAPPSTNFEILNEMLNTRKNMSISLESSKALADSLDRCVDPEDPYFNTLVRIMSTRCMMAAQYFYSGAYSYPDFRHYGLAVDIYTHFTSPIRRYCDVVAHRQLAGAIGYEPLSLTHRDKNKMDMICRNINRKHRNAQFAGRASIEYYVGQVMRNNESTETGYVIKVFNNGIVVLVPKFGVEGLIRLDNLTEDPNSAAFDEVEYKLTFVPTNSDKPRDVYVFDKVEVQVRSVMDPITSKRKAELLLK
B4: CXCL11 (UniProt O14625); chain FPMFKRGRCLCIGPGVKAVKVADIEKASIMYPSNNCDKIEVIITLKENKGQRCLNPKSKQARLIIKKVERKNF
B5: erenumab; V domains shown; sequence looked up; VH QVQLVESGGGVVQPGRSLRLSCAASGFTFSSFGMHWVRQAPGKGLEWVAVISFDGSIKYSVDSVKGRFTISRDNSKNTLFLQMNSLRAEDTAVYYCARDRLNYYDSSGYYHYKYYGMAVWGQGTTVTVSS; VL QSVLTQPPSVSAAPGQKVTISCSGSSSNIGNNYVSWYQQLPGTAPKLLIYDNNKRPSGIPDRFSGSKSGTSTTLGITGLQTGDEADYYCGTWDSRLSAVVFGGGTKLTVL
B6: RGS1 284-459 (Arabidopsis thaliana, UniProt Q8H1F2); chain KEEFRPVDPNEPLDKLLLNKRFRHSFMEFADSCYAGETLHFFEEVYEHGKIPEDDSIRRIYMARHIMEKFIVAGAEMELNLSHKTRQEILTTQDLTHTDLFKNALNEVMQLIKMNLVRDYWSSIYFIKFKEEESCHEAMHKEGYSFSSPRLSSVQGSDDPFYQEHMSKSSRCSSPG
B7: TIMP3 24-144 (Homo sapiens, UniProt P35625); sequence looked up; chain CTCSPSHPQDAFCNSDIVIRAKVVGKKLVKEGPFGTLVYTIKQMKMYRGFTKMPHVQYIHTEASESLCGLKLEVNKYQYLLTGRVYDGKMYTGLCNFVERWDQLTLSQRKGLNYRYHLGCN
B8: Il2 Y59K (Mus musculus, UniProt P04351); chain APTSSSTSSSTAEAQQQQQQQQQQQQHLEQLLMDLQELLSRMENYRNLKLPRMLTFKFKLPKQATELKDLQCLEDELGPLRHVLDLTQSKSFQLEDAENFISNIRVTVVKLKGSDNTFECQFDDESATVVDFLRRWIAFCQSIISTSPQ

Semaglutide — maximal response (GLP1R (Homo sapiens, UniProt P43220); β-arrestin-2 recruitment, BRET; HEK293T; relative to: GLP-1, higher = stronger response): 92 % GLP-1
rob (Escherichia coli, UniProt P0ACI0) — transcription activation (rpoD R599A (Escherichia coli, UniProt P00579); β-galactosidase reporter; added: fumC promoter; relative to: wild-type σ70, higher = more activation): 59%
dnaJ (Escherichia coli, UniProt P08622) — ATPase stimulation (dnaK (Escherichia coli, UniProt P0A6Y8); ATPase activity, activator, single turnover ATPase assay; relative to: intrinsic activity, higher = more stimulation): 60 fold
PYCARD (Homo sapiens, UniProt Q9ULZ3-2) — forward rate constant (itself; real-time NMR; 495 µM): 8.6e-10 h
ribosomes whole ribosome (Rattus norvegicus) — dissociation end response (CRIP3 precursor 22-286 (Zea mays, UniProt P28522); SPR; 60 nM): 10 RU
B1 (UGT1A9) — Vmax (COc1ccc([C@@H]2CC(=O)c3c(O)cc(O)cc3O2)cc1O; steady-state kinetics; pH 7.4, 37 °C): 0.00244 µmol/min/mg and 0.00419 µmol/min/mg
B2 (RTT103 1-131 R108N) — reduction in recruitment (RPO21 CTD, two heptad repeats, phosphoserine at both Ser2; ChIP; ADH1 gene, in cells; relative to: wild type, higher = greater reduction): 5 fold
COX6A2 (Bos taurus, UniProt P07471) — urea midpoint for subunit dissociation (cytochrome c oxidase eight-subunit core (Bos taurus, UniProt P00396); anion exchange chromatography, RP-HPLC, SDS-PAGE; 10 min, pH 7.2, room temperature, apparent, single transition fit): 3.8 M
C5a (Homo sapiens, UniProt P01031) — CD11b expression (C5AR1 (Homo sapiens, UniProt P21730); flow cytometry; granulocytes, whole blood; 210 nM, added: TRAP 10 µM; relative to: TRAP alone, higher = more expression): 1.5 fold
B3 (DIS3) — relative exoribonuclease activity (CSL4/RRP4/RRP40/RRP41/RRP42/RRP46/RRP43/RRP45/MTR3 Exo9 core (Saccharomyces cerevisiae); AU-rich RNA degradation; relative to: free Rrp44, lower = less active): 8 fold
DCTN1 p150-CC1 (Homo sapiens) — fold greater apparent affinity (dynein (Homo sapiens); TIRF microscopy; relative to: Ndel1, higher = stronger binding): 6 fold
HSP90AB1 (Homo sapiens, UniProt P08238) — increase in TGF-β1 transcription (LAP of TGFB1 latency associated peptide (UniProt P01137); CAGA12-luciferase reporter; MG63; added: latent TGF-β1; relative to: IgG control, higher = more transcription): 1.4 fold
INS mature A and B chains, PEG 5000 on B29 (Homo sapiens) — EC50 (Insr (Mus musculus, UniProt P15208); AKT Ser473 phosphorylation, agonist, HTRF; C2C12; 30 min): 110 nM
EDFRSGSEAFDLIAQDEEEFNKEHQFIQEEN (CEP192 506-536 (Homo sapiens, UniProt Q8TEP8)) — IC50 (AURKA kinase domain 123-403, phosphorylated (Homo sapiens, UniProt O14965); competition with labeled peptide, fluorescence polarization; peptide): 21000 nM
LWVVPGALPQV (C10orf99 71-81 (Homo sapiens)) — pEC50 (GPR15 (Homo sapiens, UniProt P49685); inhibition of forskolin-stimulated cAMP, agonist, HTRF; peptide, HEK293A-GPR15): 6.39
B4 (CXCL11) — LogEC50 (CXCR3 (Homo sapiens, UniProt P49682); inhibition of forskolin-raised cAMP, agonist; HEK293): -9.6
Dync1i1 (Mus musculus, UniProt O88485) — relative coprecipitation (Myo6 (Mus musculus, UniProt Q64331); co-IP; brain lysate, muskelin knockout; relative to: myosin VI immunoprecipitation, higher = more coprecipitation): 0.87
Apoa5 (Mus musculus, UniProt Q8C7G5) — koff (ANGPTL3/ANGPTL8; SPR; pH 7.4, 25 °C, NaCl 150 mM, added: CaCl2 4 mM): 0.000832 s⁻¹
Rigi fragment (Mus musculus) — reduction of IFNβ induction (Trim25 440-630 W621A (Mus musculus, UniProt Q61510); IFNβ reporter; HEK-293T; relative to: wild type TRIM25, higher = greater loss of enhancement): 31 % reduction
ULP1 (Saccharomyces cerevisiae, UniProt Q02724) — apparent KM (SUMO/eGFP His6-SUMO fused eGFP (Saccharomyces cerevisiae); steady-state kinetics; pH 7.5, 30 °C, added: DTT 1 mM): 3.34 mM
B5 (erenumab) — pKB (CALCR/RAMP1 on cells (Homo sapiens); cAMP production, antagonist, global Gaddum-Schild; antibody, Cos7; added: amylin): 6.59
BRD4 (Homo sapiens, UniProt O60885) — reporter activity (TWIST1 (Homo sapiens, UniProt Q15672); Gal4-luciferase reporter; added: BRD4; relative to: control, higher = more activity): 8 fold
B6 (RGS1 284-459) — GTP hydrolysis rate constant (GPA1 (Arabidopsis thaliana, UniProt P18064); activator, single turnover GTPase assay; 250 nM): 0.346 min⁻¹
B7 (TIMP3 24-144) — Ki (ADAMTS5 262-622 (Homo sapiens, UniProt Q9UNA0); inhibitor, steady-state kinetics; 18 h, pH 7.5, 37 °C, tight-binding fit): 0.4 nM
AR (Homo sapiens, UniProt P10275) — reporter activity (ETV1 (Homo sapiens, UniProt P50549); E74 luciferase reporter; RK13; added: mibolerone 0.5 nmol/L; higher = more activation): 2.1 fold
TPDFLMQLMNDKKLMSSLPNFSGIFNHLERLLDEEISRVRKDMYNDTLNGSTEK (Qki 14-67 C35S/Y17F (Mus musculus, UniProt Q9QYS9)) — melting temperature (itself; CD thermal melting; 50 µM): 45 °C
Tigit fragment (Mus musculus) — kon (Pvr/IgG1 Fc Fc fusion, extracellular domain (Mus musculus); SPR; avidity, bivalent analyte model): 4660 M⁻¹ s⁻¹
NRTN fragment (Homo sapiens) — maximal luciferase signal (RET 29-635 (Homo sapiens, UniProt P07949); MAPK signaling, SRE luciferase reporter, agonist; TGW neuroblastoma; higher = stronger signal): 168000 RLU
B8 (Il2 Y59K) — pSTAT5+ Tregs (Il2ra (Mus musculus, UniProt P01590); flow cytometry; mouse splenocytes; relative to: wildtype IL2, higher = greater reduction): > 300 fold
SELL (Homo sapiens, UniProt P14151) — mean rolling velocity (SELPLG 42-320 (Homo sapiens, UniProt Q14242); cell rolling; Jurkat; cell type assumed, added: DREG-55 mAb; higher = faster rolling): 112 µm/s
PIN1 (Homo sapiens, UniProt Q13526) — kcat (Grm5 C-terminal tail, pT1123/pS1126; isomerisation of pS1126-P, ZZ-exchange NMR; 82 µM Pin1, added: Homer1a 0.82 mM): 1 s⁻¹
IGF2 (Homo sapiens, UniProt P01344) — branching points per neuron (IGF1R (Gallus gallus); process branching; embryonic spinal motoneurons; 0.1-10 nM; relative to: no hormone, higher = more branching): 1.45
EGF mature, 125I label (mouse) — EC50 (EGFR (Homo sapiens, UniProt P00533); receptor autophosphorylation, agonist; CHO; 2 min, 37 °C): 2.6 nM

A few entries again:
Dync1i1 (Mus musculus, UniProt O88485) — relative coprecipitation (Myo6 (Mus musculus, UniProt Q64331); co-IP; brain lysate, muskelin knockout; relative to: myosin VI immunoprecipitation, higher = more coprecipitation): 0.87
HSP90AB1 (Homo sapiens, UniProt P08238) — increase in TGF-β1 transcription (LAP of TGFB1 latency associated peptide (UniProt P01137); CAGA12-luciferase reporter; MG63; added: latent TGF-β1; relative to: IgG control, higher = more transcription): 1.4 fold
B5 (erenumab) — pKB (CALCR/RAMP1 on cells (Homo sapiens); cAMP production, antagonist, global Gaddum-Schild; antibody, Cos7; added: amylin): 6.59
